# Published values collected from several papers.
# “And” joins repeats or separate records; there may be more than shown. ± gives the spread as reported.
Compound,test,system,setting,scale,endpoint,result
COc1ccc2cc3[n+](cc2c1OCCCOC(=O)c1cscn1)CCc1cc2c(cc1-3)OCO2,,"C57BL/6 mice, high-fat diet","oral gavage, 10 mg/kg daily, 14 weeks",relative to: HFD control,plasma total cholesterol reduction,29.5%
NC[C@@H](C(=O)Nc1ccc(-c2cn[nH]c2)cc1)c1ccccc1,tonometry,"NZW rabbit, magnetic bead-induced ocular hypertension","ocular, 0.1%, 2 h",,IOP,33.1 mmHg
CN1CCC[C@]1(C)/C=C/S(=O)(=O)NC(=O)Nc1c2c(cc3c1CCC3)CCC2,,"human, whole blood ex vivo","50 mg twice daily, day 1, 6 h, multiple ascending dose, together with: LPS and ATP",,IL-18 inhibition,84.2%
CCC(CC)n1c(Cc2cccs2)nc2cc(C(=O)N[C@@H](CC(=O)O)c3ccccc3)ccc21,,"mouse HFpEF model (high-fat diet plus L-NAME, 7 weeks)","intraperitoneal, 20 mg/kg/day, 2 weeks",,cardiac fibrosis,decreased
CCCCCc1ccc(S(=O)(=O)N2CC2C(=O)OC)cc1 (stereo not shown),,"mouse, Lewis lung carcinoma","intraperitoneal, 15 mg/kg, 16 doses, day 11",,tumour growth inhibition,54%
CC(C)[C@H](NC(=O)[C@H](Cc1ccccc1)NC(=O)[C@H](Cc1ccccc1)NC(=O)OCC1c2ccccc2-c2ccccc21)C(=O)N[C@@H](CCC(=O)O)C(=O)N[C@@H](CCC(=O)O)C(N)=O,item: Cy5.5-labelled peptide,"mouse, lung",intravenous,,time to lung targeting,≤ 5 min
O=C([O-])c1cccc(CN2Cc3cccc(n3)CN(Cc3cccc(C(=O)O)n3)Cc3cccc(n3)C2)n1.[Mn+2].[O-][Cl+3]([O-])([O-])[O-],,HEPES buffer with NaCl,"33 °C, 1.4 T",,r1 relaxivity,3.6 mM⁻¹ s⁻¹
COC1CN([C@H]2CC[C@H]([C@@]3(C)Oc4c(Cl)cc(C(=O)NCc5c(SC)cc(C)[nH]c5=O)c(C)c4O3)CC2)C1,"RNA-seq, item: TIMP3","human, whole blood","dose not given, 24 h",relative to: pretreatment baseline,log2 fold change,3.2
COc1cnc2cccc(N3CCc4c(cc(Cn5ccnc5)cc4-c4cn(C)nc4C(F)(F)F)C3=O)c2c1,,"BALB/c nude mice, MV4-11 xenograft","intraperitoneal, 75 mg/kg, day 17",,tumour volume,134 mm3 and 150 mm3 and 151 mm3 and 128 mm3 and 154 mm3
COc1ccc(C(=O)CCc2cc(C(CCc3ccc(O)cc3OC)c3ccc(O)cc3)c(O)cc2OC)cc1 (racemic),,human blood,"0.3 µM, together with: A23187",,EPA level,63000 ± 14200 pg/mL
CC(C)OC(=O)[C@H](CO)NCc1cc(Cl)c(OCc2cccc(-c3ccccc3)c2Br)cc1OCc1cccnc1,,"hPD-L1 MC-38 tumour, humanised hPD-1 C57BL/6 mouse","oral, 2.5 mg/kg × 21, day 20",relative to: vehicle,tumour volume T/C,56%
CC(C)(C)NCC(SS(=O)(=O)O)c1ccccc1 (stereo not shown),,"Swiss Webster mice, Schistosoma mansoni-infected","600 mg/kg single dose on day 15 post-infection, perfusion day 44 post-infection",,spleen weight,0.26 g
COc1cc(O)ccc1CCC(c1ccc(O)cc1)c1cc2c(c(C)c1O)OC(c1ccc(O)cc1)CC2 (mixture of isomers),,human blood,"1 µM, together with: A23187",,EPA level,68000 ± 12100 pg/mL
N=C(N)NCCC[C@@H]1NC(=O)[C@H](CCCNC(=N)N)NC(=O)[C@@H](C(c2ccccc2)c2ccccc2)NC(=O)[C@H](Cc2c[nH]c3ccccc23)NC(=O)[C@@H](C(c2ccccc2)c2ccccc2)NC(=O)[C@@H](CCCNC(=N)N)NC(=O)[C@@H](CCCNC(=N)N)NC1=O,,mammalian membrane liposomes,"50 µg/mL, 100 min",,calcein leakage,12 to 18%
CC(=O)[O-].O.O.[O-]c1ccc(Br)cc1C=NCCN1CCOCC1.[Zn+2],nitric oxide scavenging,,160 µM,,inhibition,37.8%
CC(CCC(=O)NCc1ccc(C(=O)NO)cc1)C1CCC2C3C(O)CC4CC(O)CCC4(C)C3CCC12C (stereo not shown),item: TCA,"PCK rat (Pkhd1 mutant), bile","oral gavage, dose not given, 5 months",relative to: total bile acids,relative abundance,54.6%
COc1cccc(OCCN2CCC[C@H](CN3CCc4cc(OC)c(OC)cc4CC3=O)C2)c1,,"C57BL/6J mouse, female, chronic social defeat stress","intraperitoneal, 5 mg/kg, 14 d post-dose",relative to: before dosing,"time in centre, open field",no effect
O=C(NS(=O)(=O)c1cccs1)c1cc2ccccc2n1Cc1ccc(Br)c2ccccc12,,"mouse, chronic hyperuricaemia model, serum",dose not given,,blood urea nitrogen,11.7 mM and 10.7 mM and 10 mM and 9.64 mM and 8.36 mM and 14.5 mM
Cc1cc(NC(=O)C(=O)N2C[C@@H](C)CC[C@@H]2c2ccc3scnc3c2)cnc1N,,"mouse, HCT-116 MTAP wild-type xenograft","dose not given, same dose levels",,antitumour activity,no effect
CC(C)C[C@H](NC(=O)CNC(=O)[C@H](CCC(N)=O)NC(=O)[C@H](CC(C)C)NC(=O)[C@H](CC(C)C)NC(=O)[C@H](CCCNC(=N)N)NC(=O)[C@H](CCC(N)=O)NC(=O)[C@H](CC(C)C)NC(=O)[C@H](CCCNC(=N)N)NC(=O)[C@H](C)NC(=O)CNC(=O)[C@H](CCC(=O)O)NC(=O)[C@H](CCCNC(=N)N)NC(=O)[C@H](CC(C)C)NC(=O)[C@H](CCCNC(=N)N)NC(=O)[C@H](CO)NC(=O)[C@H](CC(C)C)NC(=O)[C@H](CCC(=O)O)NC(=O)[C@H](CO)NC(=O)[C@@H](NC(=O)[C@H](Cc1ccccc1)NC(=O)[C@@H](NC(=O)CNC(=O)[C@H](CC(=O)O)NC(=O)C(C)(C)NC(=O)[C@@H](N)Cc1c[nH]cn1)[C@@H](C)O)[C@@H](C)O)C(=O)N[C@@H](CC(C)C)C(=O)N[C@@H](CCC(N)=O)C(=O)NCC(=O)N[C@@H](CC(C)C)C(=O)N[C@H](C(=O)NCC(=O)N[C@@H](CCCCNC(=O)COCCOCCNC(=O)COCCOCCNC(=O)CC[C@H](NC(=O)CCCCCCCCCCCCCCCCC(=O)O)C(=O)O)C(N)=O)C(C)C,,DIO C57BL/6J mice,"sc, 300 nmol/kg twice daily, end of 8 days",,plasma glucagon,decreased
Cc1[nH]nc2c1N=C(c1ccccc1Cl)c1cnc(N3CCOCC3)cc1N2,,mouse HCC1806 TNBC xenograft,"oral, 15 mg/kg once daily",,tumour growth inhibition,80.7%
C[C@H](NC(=O)COC(=O)[C@H](C)NC(=O)CO)C(=O)O,,water,"pH 2, 50 °C",,backbone scission rate constant,0.0051 h⁻¹
